# Experimental data pooled from the literature.
# Numbered parts are unrelated; each lists some results of a single study.
# Sequence of UniProt P14921 (whole entry, unmodified, looked up): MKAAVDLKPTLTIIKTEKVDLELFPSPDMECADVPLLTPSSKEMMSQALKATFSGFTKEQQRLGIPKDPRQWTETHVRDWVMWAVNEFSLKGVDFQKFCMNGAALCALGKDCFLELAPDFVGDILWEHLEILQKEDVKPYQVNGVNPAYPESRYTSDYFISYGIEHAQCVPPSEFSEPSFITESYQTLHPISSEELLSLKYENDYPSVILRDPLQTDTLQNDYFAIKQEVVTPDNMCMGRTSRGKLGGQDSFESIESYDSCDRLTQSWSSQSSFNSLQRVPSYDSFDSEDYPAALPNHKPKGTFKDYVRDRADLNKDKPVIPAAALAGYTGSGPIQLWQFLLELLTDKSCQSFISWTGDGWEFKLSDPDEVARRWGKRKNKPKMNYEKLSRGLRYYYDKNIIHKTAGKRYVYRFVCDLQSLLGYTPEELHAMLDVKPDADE
# Sequence of UniProt P48431 (19-118, looked up): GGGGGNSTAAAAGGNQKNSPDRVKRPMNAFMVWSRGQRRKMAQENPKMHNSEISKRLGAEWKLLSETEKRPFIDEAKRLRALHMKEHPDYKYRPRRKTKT

# Block 1
# Target: Replicase polyprotein 1ab, polymerase (rep, Severe acute respiratory syndrome coronavirus 2, UniProt P0DTD1)
# Read-out: enzyme activity
# Action: inhibitor
# Tested at: 20 µM
SMILES,inhibition [%]
N#CC1(c2ccc(NC(=O)c3cccnc3NCc3ccncc3)cc2)CCCC1,-0.97
O=C1C[C@@H](c2ccccc2)Oc2cc(O)cc(O)c21,0.41
NC(=O)NC(=O)Cc1ccccc1,23.4
NCCCCCc1c[nH]cn1,-9.74
CCCc1nc(C(C)(C)O)c(C(=O)OCc2oc(=O)oc2C)n1Cc1ccc(-c2ccccc2-c2nnn[nH]2)cc1,0.35
N#C/C(=C(/N)Sc1ccc(N)cc1)c1ccccc1C(F)(F)F,-1.2
Cc1ccccc1OCC(O)CNCCOc1ccc(C(N)=O)cc1 (stereo not drawn),0.11
N[C@H](C(=O)O)c1ccc(O)c(C(=O)O)c1,-10.5
COc1ccccc1C1(O)CCN(CCCn2c3ccccc3c3ccccc32)CC1,13.2
CNC(=O)c1c(F)cccc1Nc1nc(Nc2cc3c(ccn3C(=O)CN(C)C)cc2OC)nc2[nH]ccc12,2.78
CCN1CCC(n2cc(CNc3cc(Cl)c4ncc(C#N)c(Nc5ccc(F)c(Cl)c5)c4c3)nn2)CC1,8.54
CCCC(=O)O[C@]1(C(=O)CO)CC[C@H]2[C@@H]3CCC4=CC(=O)CC[C@]4(C)[C@H]3[C@@H](O)C[C@@]21C,2.73
COc1ccc(-c2oc3cc(OC)ccc3c2C(=O)c2ccc(C#N)cc2)cc1,0.5
CC(C)=CCC[C@](C)(O[C@@H]1O[C@H](CO)[C@@H](O)[C@H](O)[C@H]1O)[C@H]1CC[C@]2(C)[C@@H]1[C@H](O)C[C@@H]1[C@@]3(C)CC[C@H](O)C(C)(C)[C@@H]3CC[C@]12C,-2.09
CC1CCN(CC[C@H]2CCCN2S(=O)(=O)c2cccc(O)c2)CC1,-2.74
O=C(Cc1ccccc1)Nc1nc2ccc(Cl)cc2c2nc(-c3ccco3)nn12,-2.21
CN(C)C/C=C(/c1ccc(Br)cc1)c1cccnc1,4.68
COc1ccc2c(c1)[C@]13CCCC[C@@H]1[C@H](C2)N(C)CC3,23.4
N#Cc1c(N)nc(SCc2csc(-c3ccc(Cl)cc3)n2)c(C#N)c1-c1ccc(OCCO)cc1,-1.65
CC(C)n1nccc1-c1ncccc1COc1cccc(O)c1C=O,6.01
NCCCC[C@@H]1NC(=O)[C@@H](Cc2c[nH]c3ccccc23)NC(=O)[C@H](c2ccccc2)NC(=O)[C@@H]2C[C@@H](OC(=O)NCCN)CN2C(=O)[C@H](Cc2ccccc2)NC(=O)[C@H](Cc2ccc(OCc3ccccc3)cc2)NC1=O,15.2
O=c1cc(N2CCOCC2)oc2c(-c3ccccc3)cccc12,7.85
Cc1[nH]c(/C=C2\C(=O)Nc3ccc(S(=O)(=O)N(C)c4cccc(Cl)c4)cc32)c(C)c1C(=O)N1CCN(C)CC1,-5.09
CC(C)(Sc1ccncc1-c1ccc(C#N)c2ccccc12)C(=O)O,-2.17
O=C(O)c1ccc2[nH]cc(CCCCN3CC=C(c4ccccc4)CC3)c2c1,-2.27

# Block 2
# Target: Ras GTPase-activating protein-binding protein 1, RRM domain (G3BP1, Homo sapiens, UniProt Q13283)
# Sequence of UniProt Q13283 (whole entry, looked up): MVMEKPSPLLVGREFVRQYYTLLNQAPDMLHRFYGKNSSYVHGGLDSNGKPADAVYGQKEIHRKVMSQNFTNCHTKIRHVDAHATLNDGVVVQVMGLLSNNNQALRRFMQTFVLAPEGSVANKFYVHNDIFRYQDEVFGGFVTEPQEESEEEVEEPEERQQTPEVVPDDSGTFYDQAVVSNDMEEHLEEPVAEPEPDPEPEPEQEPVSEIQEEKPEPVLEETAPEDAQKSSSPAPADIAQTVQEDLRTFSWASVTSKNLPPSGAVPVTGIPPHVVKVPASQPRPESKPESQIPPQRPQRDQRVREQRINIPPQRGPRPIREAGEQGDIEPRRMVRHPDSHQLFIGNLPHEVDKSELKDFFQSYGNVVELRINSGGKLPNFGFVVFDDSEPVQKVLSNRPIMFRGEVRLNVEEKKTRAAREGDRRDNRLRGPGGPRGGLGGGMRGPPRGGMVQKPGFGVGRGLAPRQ
# Method: RNA Bind-n-Seq
# Molecule type: RNA
# Matrix: in vitro
# Tested at: 1 µM
# Notes: whole 134-nt RNA, ends assumed
# Added: 150 mM KCl
# Relative to: input library
# Reading: higher = stronger binding
# Shared flanks, not repeated: GGGAGUUCUACAGUCCGACGAUC … UGGAAUUCUCGGGUGUCAAGG
Oligonucleotide,log2 enrichment
UCAAGUCCUGUGCUACACAUCGUAUGUACCGAAUCGGUUUUUUUGGUUUGGUGGAAAGUAUUAUGUUACGCCGUUCGGAUCUGCACUUCC,-0.309
UAACUUUGGAGGAGGAUCUGAUGGAUAUGGCAGUGGACGUGGAUUUGGGGAUGGCUAUAAUGGGUAUGGAGGAGGACCUGGAGGUGGCAA,-0.811
UGGGAGGUGGAUUUUGUUUAUUUUUUUAGCUCAUUUCCAGGGGUUGGAAUUUUUUUUUAAUAUGUGUCAUGAAUAAAGUUGUUUUUGAAA,1.14
GUCCUGUGCUACACAUCGUAUGUACCGAAUCGGUUUUUGGAAAAAAAGGUUUUUUUGGAAAGUAUUAUGUUACGCCGUUCGGAUCUGCAC,-0.257
AGUCCUGUGCUACACAUCGUAUGUACCGAAUCGGGAAAAAAAGGGAAAGGGAAAGGGAAAGUAUUAUGUUACGCCGUUCGGAUCUGCACU,0.348
UAACUUUAGAGGAGGAUCUGAUGGAUAUGGCAGUGGACGUGGAUUUGGGGAUGGCUAUAAUGGGUAUGGAGGAGGGCCUGGAGGUGGCAA,-0.11
ACCAUGCAGGUGGGCAUCUUUGGGAAGUGGGGCAAGGGGGGGAUAGGGAGGGGGGUAACACUUUCGGAACAGGUGGUCCCAGGUCGUUUC,0.841
UGGGAGGUGAAUUUUGUUUAUUUUUUUAGCUCAUUUCCAGGGGUGGGAAUUUUUUUUUAAUAUGUGUCAUGAAUAAAGUUGUUUUUGAAA,1.5

# Block 3
# Target: Replicase polyprotein 1ab, main protease (rep, Severe acute respiratory syndrome coronavirus 2, UniProt P0DTD1)
# Read-out: enzyme activity
# Action: inhibitor
# Tested at: 20 µM
# Notes: primary screen
Compound,inhibition [%]
CCCCCCCCCCCCCCSCC(=O)O,27.3
CN1CC[C@@]2(C)c3cc(O)ccc3N(C)[C@@H]12,91.5
NC(Cc1cc(O)c(O)cc1O)C(=O)O (stereo not drawn),62.8
N=C(N)NN=C1C=CC(=NNC(N)=S)C=C1,97.5
NCC1(CC(=O)O)CCCCC1,76.6

# Block 4
# Target: RING finger protein unkempt homolog, zinc fingers 1-6, GST-SBP tag (UNK, Homo sapiens, UniProt Q9C0B0, residues 30-357)
# Sequence of UniProt Q9C0B0 (30-357, looked up): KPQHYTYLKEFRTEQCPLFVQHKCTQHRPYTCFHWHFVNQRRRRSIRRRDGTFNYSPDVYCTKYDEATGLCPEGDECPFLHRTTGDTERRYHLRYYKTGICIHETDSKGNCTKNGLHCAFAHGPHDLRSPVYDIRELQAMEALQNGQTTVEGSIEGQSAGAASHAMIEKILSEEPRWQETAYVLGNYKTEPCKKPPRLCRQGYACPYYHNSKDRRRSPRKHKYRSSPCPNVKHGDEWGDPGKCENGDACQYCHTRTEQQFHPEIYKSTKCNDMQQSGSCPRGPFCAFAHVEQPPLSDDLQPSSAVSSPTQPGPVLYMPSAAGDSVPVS
# Method: RNA Bind-n-Seq
# Molecule type: RNA
# Matrix: in vitro
# Tested at: not given
# Notes: RNA with constant flanks, ends assumed
# Relative to: input RNA pool
# Reading: higher = stronger binding
# Shared flanks, not repeated: GGGAGUUCUACAGUCCGACGAUC … CAACAGAGGAUUGAGCAUCA
Oligonucleotide,bound/input enrichment
CAUGUAGUUUGUUUUUAAUUUCAAGCAAAAUCUUACUGUACUUGAAUGUGCCCUGUUUUGUCCGCACACCUAGACUUGCUGUAACUGUACUCAUGUCCCAGUAUGUACGUUCUUUCUAUG,7.25 ratio
AGACGACGGGAAUAUCAGUUAUCUGACUCUACCAAAUACUAUCUGAAUGACUUGGACCGUGCCGCCGACCCUUCCUAUCUGCCUACACAACAAGACGUGCUUAGAGUUCGAGUCCCCACU,0.208 ratio
UGAAUUUUCAAUGUUUAAUUGACAUGGAUCGGAUCUUAGCAUGGUCUUUUCUGUGACUGCCCGCACUGUAUUGUAAUUUUUCCAUUUUAAGCCUUUUCAUUGCACCUCCAGCCCCUCUGC,1.45 ratio
AAUUCAAUGGUUGAGGGUUCAGAACUCAAAAAGGUUCGCUCCAACUCUAGAAUUUAUCACCGGUACUUUUUACUGGAUGCUGACAUGCAGAGCCUAAGGUGGGAGCCAUCUAAGAAGGAU,0.325 ratio
AUUAAGCUUUAUGAAAACUUCAUCAGUGAGUUUGAGCACAGGGUAAACCCUCUGUCCCUGGCCGAAAUAAUUCUCCAUGUGGUUAGACAGAUGACCGAUCCUAAUGUGGCUCUUACUUUU,0.281 ratio
GUUAUCAAGUUCGAUACAGAGGAGGAGGCUAUAGCAAUCGCUAACGCAGCUGAUGUUGGGUCCGCAGGUUAUUUUUACUCUCAAGACCCAGCCCAGAUCUGGAGAGUGGCAGAGCAGCUG,0.217 ratio
GAGUCCUAGGAUGUUUCUCUUGCCUCCUUCUUGCUUUUUUCCUUUCCCCCAGUAGAGACCCCGCAAAGCUUUACAAAGCCCCUGAAAGUAGAUCCCAGAGAGAAAGUUUGCAGUCAGGUG,0.649 ratio
UCUGUUCGAAGAUUGGACCCAGAAUACUGGAAGACUAUACUGAGUUGUAUAUAUGUUUUUACCGUAUUUGGAUUUACAUCUUUCAUUAUGGUUAUAGUCCAUGAGCGAGUGCCUGACAUG,0.193 ratio

# Block 5
# Cell line: HEK-293T-ACE2
# Tested at: concentration not given
# Relative to: vehicle
SMILES,cell number
C[C@H]1O[C@]2(CS1)CN1CCC2CC1.C[C@H]1O[C@]2(CS1)CN1CCC2CC1.Cl.Cl.O,95.2%
CNC(=O)c1cc(Oc2ccc(NC(=O)Nc3ccc(Cl)c(C(F)(F)F)c3)c(F)c2)ccn1,89.9%
O=C(CCCCCCC(=O)Nc1ccccc1)NO,72.6%
Cl.N=C(N)N,102%

# Further values, each from its own experiment
# Method: protein-binding microarray
# Molecule type: double-stranded DNA, one strand shown
# Matrix: in vitro
# Tested at: not given
# Notes: k-mer, scored over probes, only values ≥0.25
# Reading: higher = stronger binding
# CREB1: Cyclic AMP-responsive element-binding protein 1 (CREB1, Homo sapiens, UniProt P16220, residues 1-327, full length assumed)
# Sequence of UniProt P16220 (whole entry, looked up): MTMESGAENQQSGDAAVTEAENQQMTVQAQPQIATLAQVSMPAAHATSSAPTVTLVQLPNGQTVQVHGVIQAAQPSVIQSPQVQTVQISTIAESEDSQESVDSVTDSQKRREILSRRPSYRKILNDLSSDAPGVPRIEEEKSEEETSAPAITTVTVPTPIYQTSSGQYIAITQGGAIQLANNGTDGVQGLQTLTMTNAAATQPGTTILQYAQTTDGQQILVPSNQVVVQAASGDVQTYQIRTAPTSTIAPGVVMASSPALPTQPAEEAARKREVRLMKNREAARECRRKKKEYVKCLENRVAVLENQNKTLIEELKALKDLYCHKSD
Oligonucleotide,target,E-score
AATGCAC,"Transcription factor SOX-2, HMG box (SOX2, Homo sapiens, UniProt P48431, residues 19-118)",0.252
CCACGTC,CREB1,0.327
CCGGGAGA,"Protein C-ets-1 (ETS1, Homo sapiens, UniProt P14921, residues 1-441, K379A, full length assumed)",0.272
ATTGACG,CREB1,0.304

# Excerpt of the above (block 1):
SMILES,inhibition [%]
Cc1[nH]c(/C=C2\C(=O)Nc3ccc(S(=O)(=O)N(C)c4cccc(Cl)c4)cc32)c(C)c1C(=O)N1CCN(C)CC1,-5.09
CC(C)(Sc1ccncc1-c1ccc(C#N)c2ccccc12)C(=O)O,-2.17
O=C(O)c1ccc2[nH]cc(CCCCN3CC=C(c4ccccc4)CC3)c2c1,-2.27
